Results gathered from unrelated publications.
“And” joins repeats or separate records; there may be more than shown. ± marks the error that the study gave. Converted amounts (≈) assume the structure as drawn.

For `CCN1CCN(Cc2ccc(NC(=O)c3ccc(C)c(NC(=O)c4cncc(-c5cccs5)c4)c3)cc2C(F)(F)F)CC1`, serum creatinine read “decreased” (C57BL/6 mouse, serum; intraperitoneal, 20.0 mg/kg daily for 10 days, day 11; reference: vehicle).
`acyl ghrelin (human)` — result for “initial brain distribution volume”: 1.48 ± 0.55 µL/g (multiple-time regression; Ghsr knockout mice, whole brain; intravenous, dose not given).
For `O=C(/C=C/c1ccc(O)c(O)c1)O[C@H](Cc1ccc(O)c(O)c1)C(=O)O`, the CL/F was 2040 ± 173 mL/min/kg (UPLC-MS/MS; Wistar rat, microcirculation dysfunction model, plasma; oral, 100 mg/kg Salvia miltiorrhiza stem-leaf extract FS).
`C[C@](N)(Cc1ccc(O)c(O)c1)C(=O)O` gave a solubility of 31.7 µg/mL (≈ 150 µM) (static gravimetric method; supercritical CO2, 435.3 kg/m3; 5 h, 333 K, pressure 12 MPa).
`liraglutide` — result for “plasma protein binding”: 99.3% (equilibrium dialysis; human plasma 5% diluted; 10 nM, 4 to 5 h, pH 7.4, 37 °C, inner-outer ratio 50:1).
For `C[C@@H]1CCN(C(=O)CC#N)C[C@@H]1N(C)c1ncnc2[nH]ccc12`, “amount remaining in gastrointestinal tract” read 0.484 ± 0.298% (rat, control; intravenous infusion, 10 mg/kg, 24 h; reference: dose).
`CS(=O)(=O)n1cc2c(n1)CN([C@H]1CO[C@H](c3cc(F)ccc3F)[C@@H](N)C1)C2`: “concentration at 168 h” 17.1 nM (healthy male human, plasma; oral, 25 mg once weekly, day 15, fasted, geometric mean).
The QTcF increase of `C[C@H]1C[C@H]2CSC(N)=N[C@@]2(c2nc(NC(=O)c3ccc(OC(F)F)cn3)cs2)CO1` is reported as less than 10 ms (human; projected supratherapeutic dose, upper confidence bound).
The fu of `CCOc1ccc(Cc2cc([C@]34OC[C@](CO)(O3)[C@@H](O)[C@H](O)[C@H]4O)ccc2Cl)cc1` is reported as 0.038 (equilibrium dialysis; human, type 2 diabetes, moderate renal impairment, plasma; oral, 15 mg, 6 h).
The inhibition of `CCN(CC)C(=S)S` is reported as 41% (enzyme activity, inhibitor; human liver microsomes; 40 µM, 10 min preincubation, together with: rosiglitazone 10 µM).
`CCc1cn([C@@H]2O[C@H](CO)[C@@H](O)[C@H]2O)c2ncnc(C)c12` has a remaining compound of 95% (mouse liver microsomes; 30 min, together with: NADPH).
`Cc1nc2cccc(OCC(C)(C)C(=O)NC(C)C)c2c(N)c1C(=O)O` gave a Tmax of 0.25 h (male Sprague-Dawley rat, plasma; oral gavage, 10 mg/kg, day 1).
`CC(C)=CCC[C@](C)(O[C@@H]1O[C@H](CO)[C@@H](O)[C@H](O)[C@H]1O)[C@H]1CC[C@]2(C)[C@@H]1[C@H](O)C[C@@H]1[C@@]3(C)CC[C@H](O)C(C)(C)[C@@H]3[C@@H](O[C@@H]3O[C@H](CO)[C@@H](O)[C@H](O)[C@H]3O)C[C@]12C` gave a CL/F of 280 ± 91.7 mL/min/kg (Sprague Dawley rat, male, plasma; oral, 25 mg/kg, in red ginseng extract).
For `COC(=O)c1ccc2c(c1)NC(=O)/C2=C(\Nc1ccc(N(C)C(=O)CN2CCN(C)CC2)cc1)c1ccccc1`, “AUC(tau) steady state” read 912 ng·h/mL (human mild liver impairment, plasma; oral, 200 mg twice daily, geometric mean).
With `CC(=O)N1CCC[C@H]1C(=O)N[C@@H](CCCNC(=N)N)C(=O)N[C@H](C(=O)N[C@@H](CCCNC(=N)N)C(=O)N[C@H](C(=O)N[C@@H](CCCNC(=N)N)C(=O)N[C@H](C(=O)N[C@@H](CC(=O)O)C(=O)N1CCC[C@H]1C(=O)N[C@@H](CCCNC(=N)N)C(=O)N[C@H](C(=O)N[C@@H](CC(=O)O)C(=O)N[C@H](C(=O)N[C@@H](CCCNC(=N)N)C(=O)N[C@H](C(=O)N[C@@H](CC(=O)O)C(=O)N1CCC[C@H]1C(N)=O)C(C)C)C(C)C)C(C)C)C(C)C)C(C)C)C(C)C` the viscosity was 3580 ± 86.1 Pa·s (rotational rheometry; 2% w/v aqueous solution; shear rate range 1-1000 s^-1).
The Cmax of `CCCC[C@H](NC(C)=O)C(=O)N[C@H]1CCC(=O)NC[C@@H](C(=O)N[C@@H](Cc2c[nH]c3ccccc23)C(N)=O)NC(=O)[C@H](CCCNC(=N)N)NC(=O)[C@@H](Cc2ccccc2)NC(=O)[C@H](Cc2c[nH]cn2)NC1=O` is reported as 782 ng/mL (CD Sprague-Dawley rat, female, plasma; subcutaneous, 25.0 mg/kg/day, day 1).
The t1/2 of `CC(C)(Sc1ccncc1-c1ccc(C#N)c2ccccc12)C(=O)O` is reported as 10.4 h (human, male, Japanese, plasma; oral, 2.5 mg, day 1, fasted, single dose).
`CNC(=O)c1cc(Oc2ccc(NC(=O)Nc3ccc(Cl)c(C(F)(F)F)c3)cc2)ccn1` has a t1/2 of 28.8 ± 6.91 h (LC-MS/MS; nude mice, HepG2 subcutaneous tumour, tumour; intratumoral, 20 µL per tumour, control miRNA).
The plasma concentration of `CC(C)(O/N=C(\C(=O)N[C@H]1CN2CC(C(=O)NCCN3C(=O)c4cc(O)c(O)cc4C3=O)=C(C(=O)O)N2C1=O)c1nc(N)sc1Cl)C(=O)O` is reported as 48700 ng/mL (CD-1 mouse, plasma; subcutaneous, 50 mg/kg, 0.167 h).
`CCCOc1ccc([C@H]2CNC(=O)N2c2ccc3[nH]cnc3c2)cc1` — result for “apparent terminal half-life”: 3.98 h (human volunteers fasted, plasma; oral solution, 400 mg single dose, day 1, geometric mean).
For `CC(C)C[C@H](N)C(=O)N1CCC[C@@H](NCC(=O)N2CCC[C@H]2C(N)=O)C1`, the pKa1 was 5.13 (capillary electrophoresis-MS; water).
For `CC(C)(C)n1nc(Cc2cccc(Cl)c2)c2c(N)ncnc21`, the oral bioavailability was 25 to 30% (Swiss Albino mouse, male, plasma; oral, 10 mg/kg; reference: intravenous 3 mg/kg).
`CC[C@@]1(O)C(=O)OCc2c1cc1n(c2=O)Cc2cc3c(CN(C)C)c(O)ccc3nc2-1` — result for “lactone-carboxylate interconversion kinetics”: “no effect” (liposome suspension 50 mg/mL; pH 6.33 and 7.67, 37 °C; reference: aqueous solution).
`Cc1cc(Nc2ncc(Cl)c(Nc3ccccc3S(=O)(=O)C(C)C)n2)c(OC(C)C)cc1C1CCNCC1` gave a Css,min total of 779 nM and 800 nM and 790 nM and 935 nM and 900 nM and 580 nM and 795 nM (human, plasma; oral, 450 mg/day with food, steady state after dose 9).
Under “plasma stability time”, `TWPKHFDKHTFYSILKLGKH-OH (C-acid)` is recorded as no less than 20 min (peptide, mouse plasma; 37 °C).
For `CC(=O)Nc1noc(C)n1`, the brain concentration was 883 to 1590 ng/g (mouse C57BL/6, male, brain; oral, 60 mg/kg, 2 h).
Under “renal clearance (0-72 h)”, `COC(=O)c1ccc2c(c1)NC(=O)/C2=C(\Nc1ccc(N(C)C(=O)CN2CCN(C)CC2)cc1)c1ccccc1` is recorded as 19.4 mL/min (human, hepatic impairment Child-Pugh A, urine and plasma; oral, 100 mg single dose, geometric mean).
`C=CC(=O)N1CCC([C@@H]2CCNc3c(C(N)=O)c(-c4ccc(Oc5ccccc5)cc4)nn32)CC1` gave an AUC(0-8h) of 631 ng·h/mL (Chinese patients, plasma; oral, 160 mg twice daily, week 2 day 1, steady state).
Under “hemodialysis elimination half-life”, `CC(=O)N[C@H](CSSC[C@H](N)C(=O)O)C(=O)N[C@H](C)C(=O)N[C@H](CCCNC(=N)N)C(=O)N[C@H](CCCNC(=N)N)C(=O)N[C@H](CCCNC(=N)N)C(=O)N[C@H](C)C(=O)N[C@H](CCCNC(=N)N)C(N)=O` is recorded as roughly 0.167 h (in vitro hemodialysis; bovine blood; concentration not given).
For `CC(=O)N[C@@H](Cc1ccccc1)C(=O)N[C@H]1CCCNC(=O)[C@H](CCCNC(=N)N)NC(=O)[C@H](Cc2c[nH]c3ccccc23)NC(=O)[C@@H](CC2CCCCC2)NC(=O)[C@@H]2CCCN2C1=O`, the absorption half-life was 0.305 h (C57BL/6J mice, plasma; subcutaneous, 1 mg/kg).
With `Cc1ccnc2c1NC(=O)c1cccnc1N2C1CC1` the AUC(0-8 h) was 2710 ± 1550 ng·h/mL (olive baboon (Papio anubis), non-pregnant, serum; oral, 10 mg/kg, solution, single dose).
For `Cn1c(-c2ccc(C(N)=O)cc2F)nnc1C(C)(C)Oc1c(F)cc(Cl)cc1F`, the AUC(0-inf) was 48 ng·h/mL (young non-Japanese subjects, plasma; oral, 2 mg single dose, day 1, mean).
`CNCc1ccc(-c2cc(-c3nc(-c4ccc(S(=O)(=O)C(C)C)cc4)cnc3N)on2)cc1` gave a CL of 43.6 mL/min/kg (mouse BALB/c female, plasma; intravenous, 2.0 mg/kg, from AUC(0-360)).
For `O=C(NC[C@H](O)CO)c1ccncc1Nc1ccc(I)cc1F`, “apparent volume of distribution” read 265 L (human; oral, 45 mg, single dose alone).
`CNc1nc(Nc2ccc(-n3cnc(C)n3)c(OC)c2)nc2c1CC[C@H]2c1ccc(F)cc1` has a concentration of 1150 ng/mL (human, plasma; oral, 200 mg, 24 h, multiple doses, once daily).
`CC(C)NC[C@@H](C(=O)N1CCN(c2ncnc3c2[C@H](C)C[C@H]3O)CC1)c1ccc(Cl)cc1` has an apparent clearance of 106 L/h (human, Severe hepatic function, plasma; oral, 100 mg single dose, NCI classification, geometric mean).
`O=C1N=C(N2CCOCC2)CN1c1ccc(Cl)cc1` gave a terminal half-life of 1.96 h (beagle dog, both sexes, plasma; oral, 30 mg/kg, tablets, fed, day 0).
`COc1ccccc1C(=O)CSc1nc(C)cc(C)c1C#N` gave a microsomal CLint of 2030 µL/min/mg (metabolic stability; human, liver microsomes; 0.5 µM, pH 7.4).
The Tmax of `CC1=C2C[C@H]3[C@@H](CC[C@@H]4C[C@H](NS(C)(=O)=O)CC[C@@]43C)[C@@H]2CC[C@@]2(C1)O[C@@H]1C[C@H](C)CN[C@H]1[C@H]2C` is reported as 6 h (patients, plasma; oral, 210 mg single, day -7, cycle 1).

Repeated from above:
For `CC(C)C[C@H](N)C(=O)N1CCC[C@@H](NCC(=O)N2CCC[C@H]2C(N)=O)C1`, the pKa1 was 5.13 (capillary electrophoresis-MS; water).
For `CC(C)(C)n1nc(Cc2cccc(Cl)c2)c2c(N)ncnc21`, the oral bioavailability was 25 to 30% (Swiss Albino mouse, male, plasma; oral, 10 mg/kg; reference: intravenous 3 mg/kg).
`CC[C@@]1(O)C(=O)OCc2c1cc1n(c2=O)Cc2cc3c(CN(C)C)c(O)ccc3nc2-1` — result for “lactone-carboxylate interconversion kinetics”: “no effect” (liposome suspension 50 mg/mL; pH 6.33 and 7.67, 37 °C; reference: aqueous solution).
`Cc1cc(Nc2ncc(Cl)c(Nc3ccccc3S(=O)(=O)C(C)C)n2)c(OC(C)C)cc1C1CCNCC1` gave a Css,min total of 779 nM and 800 nM and 790 nM and 935 nM and 900 nM and 580 nM and 795 nM (human, plasma; oral, 450 mg/day with food, steady state after dose 9).
Under “plasma stability time”, `TWPKHFDKHTFYSILKLGKH-OH (C-acid)` is recorded as no less than 20 min (peptide, mouse plasma; 37 °C).
